Measured values of several laboratories.
Lines come from different studies, so protocols differ.

For `Cc1cc(C#N)cc(C)c1Oc1nc(NC2CCN(Cc3cccc(Br)c3)CC2)nc2ccccc12`, the CC50 was greater than 0.231 µM (TZM-bl; cell growth or viability, XTT).
The CC50 of `C#CCO[C@H]1C[C@H]2[C@@H](C)C[C@H]3OC(=O)C(=C)[C@H]3C[C@]2(C)[C@H]1OCC#C` is reported as 93.5 µM (BALB/c mouse splenocytes; propidium iodide flow cytometry; 48 h, 10% fetal calf serum).
`C=C1CCC2Cc3c(O)c(C(=O)C=Cc4ccccc4)c(OC)c(C)c3OC2(C)CCC2C1CC2(C)C` (stereo not shown) gave a CC50 of greater than 50 µM (HEp-2; cell growth or viability).
The CC50 of `OC[C@H]1O[C@@H](n2cnc3c(O)ncnc32)[C@H](F)[C@@H]1O` is reported as greater than 250 µM (SNB-78; cell growth or viability, SRB; 11 days).
For `Cc1ccc(S(=O)(=O)Nn2c3c(cc(-c4nc5ccccc5s4)c2=O)CCCCCC3)cc1`, the CC50 was 330 µg/mL (HEp-2; cell growth or viability, trypan blue).
With `O=c1ccn([C@@H]2O[C@H](CO)[C@@H](O)[C@H]2F)c(=O)[nH]1` the CC50 was greater than 250 µM (SkMC; sulforhodamine B; 11 days, galactose medium).
With `C=C1CCC2CC3=C(OC2(C)CCC2C1CC2(C)C)C(C)(C)C(=O)C(=C(O)C=Cc1ccccc1)C3=O` (stereo not shown) the CC50 was greater than 50 µM (HEp-2; cell growth or viability).
`C/C=C/CNC(=N)NCCCCCCCCN1CCCc2ccccc2COc2ccccc2CNC(=N)NC1=O` has a CC50 of greater than 100 µg/mL (normal human dermal fibroblasts; MTT; 24 h).
The CC50 of `COc1c(C)c(O)c(C)c(O)c1C(=O)C1C(C=C(C)C=O)C=C(C)CC1c1ccccc1` (stereo not shown) is reported as greater than 50 µM (HEp-2; cell growth or viability).
For `Nc1ncnc2c1ncn2[C@@H]1O[C@H](CO)[C@@H](O)[C@H]1F`, the CC50 was 51 µM (SNB-78; sulforhodamine B; 11 days, galactose medium).
With `C#CCO[C@H]1C[C@H]2[C@@H](C)C[C@H]3OC(=O)C(=C)[C@H]3C[C@]2(C)[C@H]1O` the CC50 was 181 µM (BALB/c mouse splenocytes; propidium iodide flow cytometry; 48 h, 10% fetal calf serum).
For `CC1=CCC(C)(C)C=CCC2(C)OC3=C(CC2CC1)C(=O)C(=C(O)C=Cc1ccccc1)C(=O)C3(C)C` (stereo not shown), the CC50 was 47.3 µM (HEp-2; cell growth or viability).
`Cc1cc2c(C(N)=O)cccc2n1-c1nc2c(c(NCc3ccccc3)n1)COCC2` gave a CC50 of 0.5 µM (human foreskin fibroblasts; MTS; 6 days).
With `CCc1c(CC2CCCCC2)nc(SCC(=O)c2ccccc2)[nH]c1=O` the CC50 was greater than 200 µM (TZM-bl; cell growth or viability; 72 h).
The CC50 of `Cc1cc(C#N)cc(C)c1Oc1nc(NC2CCN(Cc3ccccn3)CC2)nc2ccccc12` is reported as greater than 0.269 µM (TZM-bl; cell growth or viability, XTT).
`C=C1CCC2Cc3c(c(C)c(O)c(C(=O)C=Cc4ccccc4)c3OC)OC2(C)CCC2C1CC2(C)C` (stereo not shown) gave a CC50 of greater than 50 µM (HEp-2; cell growth or viability).
`COc1cc2nc(NC3CCN(Cc4ccc(S(N)(=O)=O)cc4)CC3)nc(Oc3c(C)cc(C#N)cc3C)c2cc1OC` gave a CC50 of 8.79 µM (TZM-bl; cell growth or viability, XTT).
With `CC(C)=CCC1CC(=O)C(C)=CC2C=C(C)CC(c3ccccc3)C2C(=O)C2=C(O)C(C)(CC=C1C)C(=O)C(C)(C)C2=O` (stereo not shown) the CC50 was greater than 50 µM (HEp-2; cell growth or viability).
`Cc1cc(C#N)cc(C)c1Oc1nc(NC2CCN(Cc3ccc(F)cc3)CC2)nc2ccccc12` gave a CC50 of greater than 0.26 µM (TZM-bl; cell growth or viability, XTT).
`Nc1ccn([C@@H]2O[C@H](CO)[C@@H](O)[C@H]2F)c(=O)n1` gave a CC50 of greater than 250 µM (SkMC; sulforhodamine B; 11 days, galactose medium).
With `Cc1ccc(CN2CCC(Nc3nc(Oc4c(C)cc(C#N)cc4C)c4ccccc4n3)CC2)cc1` the CC50 was greater than 0.261 µM (TZM-bl; cell growth or viability, XTT).
`C/C=C/CNC(=N)NCCCCCCCCN1CCCc2ccc(F)cc2COc2ccccc2CNC(=N)NC1=O` gave a CC50 of greater than 100 µg/mL (normal human dermal fibroblasts; MTT; 24 h).
With `Cc1cc(C#N)cc(C)c1Oc1nc(NC2CCN(Cc3ccc(C(N)=O)cc3)CC2)nc2ncccc12` the CC50 was 44.1 µM (TZM-bl; cell growth or viability, XTT).
`CC1(C)C(=O)C(=C(O)C=Cc2ccccc2)C(=O)C2=C1OC1(C)C(C2)CC2CC1C2(C)C` (stereo not shown) gave a CC50 of greater than 50 µM (HEp-2; cell growth or viability).
With `Cc1cc(C#N)cc(C)c1Oc1nc(NC2CCN(Cc3ccc(S(C)(=O)=O)cc3)CC2)nc2cccnc12` the CC50 was 43.3 µM (TZM-bl; cell growth or viability, XTT).
With `CC1=C(OC2CC3CCC2(C)C3(C)C)C(C)(C)C(=O)C(=C(O)C=Cc2ccccc2)C1=O` (stereo not shown) the CC50 was 44.5 µM (HEp-2; cell growth or viability).
The CC50 of `Cc1cc(/C=C/C#N)cc(C)c1Oc1nc(NC2CCN(Cc3ccc(S(C)(=O)=O)cc3)CC2)nc2ccccc12` is reported as 33.1 µM (TZM-bl; cell growth or viability, XTT).
`Cc1nc([C@@H](NC(=O)c2ccc(-c3ccc(Cl)cc3)[nH]2)[C@H]2CCCCN2)sc1CO` gave a CC50 of roughly 30 µM (TZM-bl; cell growth or viability, XTT).

Repeated from above:
`C=C1CCC2Cc3c(c(C)c(O)c(C(=O)C=Cc4ccccc4)c3OC)OC2(C)CCC2C1CC2(C)C` (stereo not shown) gave a CC50 of greater than 50 µM (HEp-2; cell growth or viability).
`COc1cc2nc(NC3CCN(Cc4ccc(S(N)(=O)=O)cc4)CC3)nc(Oc3c(C)cc(C#N)cc3C)c2cc1OC` gave a CC50 of 8.79 µM (TZM-bl; cell growth or viability, XTT).
